Published values collected from several papers.
Lines come from different studies, so protocols differ.
UniProt Q14289, sequence (whole entry, looked up): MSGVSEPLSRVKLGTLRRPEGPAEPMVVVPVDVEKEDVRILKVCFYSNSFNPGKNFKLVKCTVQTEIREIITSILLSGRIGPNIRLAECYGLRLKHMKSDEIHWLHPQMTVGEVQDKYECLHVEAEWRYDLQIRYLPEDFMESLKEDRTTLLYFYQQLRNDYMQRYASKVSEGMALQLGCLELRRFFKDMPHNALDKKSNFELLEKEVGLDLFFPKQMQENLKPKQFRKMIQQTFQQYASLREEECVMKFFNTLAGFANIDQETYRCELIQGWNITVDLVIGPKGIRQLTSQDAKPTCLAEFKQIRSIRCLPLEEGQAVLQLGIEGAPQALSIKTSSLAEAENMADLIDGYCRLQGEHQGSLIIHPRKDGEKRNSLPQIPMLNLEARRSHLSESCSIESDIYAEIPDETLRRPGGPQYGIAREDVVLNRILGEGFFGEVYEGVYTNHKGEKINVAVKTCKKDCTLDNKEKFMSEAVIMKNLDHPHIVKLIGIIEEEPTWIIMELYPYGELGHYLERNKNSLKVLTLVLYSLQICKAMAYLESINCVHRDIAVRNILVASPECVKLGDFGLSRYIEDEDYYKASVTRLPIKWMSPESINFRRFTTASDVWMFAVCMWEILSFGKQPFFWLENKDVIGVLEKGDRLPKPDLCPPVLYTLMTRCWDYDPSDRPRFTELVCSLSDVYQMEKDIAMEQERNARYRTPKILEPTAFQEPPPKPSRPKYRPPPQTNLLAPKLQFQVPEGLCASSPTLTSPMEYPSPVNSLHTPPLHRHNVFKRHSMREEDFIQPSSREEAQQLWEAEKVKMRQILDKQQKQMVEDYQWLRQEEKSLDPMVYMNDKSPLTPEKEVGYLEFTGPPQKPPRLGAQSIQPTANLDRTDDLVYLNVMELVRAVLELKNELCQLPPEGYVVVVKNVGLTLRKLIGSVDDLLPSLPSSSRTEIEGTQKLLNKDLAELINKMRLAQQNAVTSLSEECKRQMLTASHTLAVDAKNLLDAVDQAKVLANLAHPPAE

With `CCSc1nnc(C2CCCN(CC(=O)Nc3cc(C(F)(F)F)ccc3Cl)C2)n1CC` (stereo not drawn) the EC50 was 3550 nM (Plasmodium falciparum; parasite growth, SYBR Green; 3D7; 72 h).
With `CCCCNCC(O)c1cc(Cl)cc2c1-c1ccc(Cl)cc1C2` (racemic) the IC50 was 11.5 nM (Plasmodium falciparum; parasite growth, SYBR Green; W2; 48 h, drug-resistant strain, blood stage).
With `C[N+]1=C2C=C(N/C=C/c3ccc(O)cc3)C(=O)c3[nH]cc(c32)CC1` the IC50 was 116 nM (Plasmodium falciparum; parasite growth, SYBR Green; 3D7; blood stage).
For `[2H]c1c([2H])c([C@]2([2H])CCCN2C(=O)C(C)(C)Oc2ccc3cn[nH]c3c2)c([2H])c([2H])c1C([2H])([2H])[2H]`, the remaining binding was 78% (PTK2B (Homo sapiens, UniProt Q14289); binding, competition with immobilised ligand; 1 µM).
With `NC1=CC2=NCCc3c[nH]c(c32)C1=O` the IC50 was 255 nM (Plasmodium falciparum; parasite growth, SYBR Green; 3D7; blood stage).
For `CCCCCCCCNC[C@@H](O)c1cc(Cl)cc2c1-c1ccc(Cl)cc1C2`, the IC50 was 5 nM (Plasmodium falciparum; parasite growth, SYBR Green; W2; 48 h, drug-resistant strain, blood stage).
With `CC(c1ccc(Cl)c(Cl)c1)c1nn2c(-c3ccccc3F)nnc2s1` (stereo not drawn) the EC50 was 117 nM (Plasmodium falciparum; parasite growth, SYBR Green; 3D7; 72 h).
For `Cc1c(F)cccc1NC(=N)CC(O)c1cc2c(F)cc(F)cc2c2cc(C(F)(F)F)ccc12` (stereo not drawn), the IC50 was 9.3 nM (Plasmodium falciparum; parasite growth, ELISA; 3D7; 72 h, blood stage).
`CCCCCCNC[C@H](O)c1cc(Cl)cc2c1-c1ccc(Cl)cc1C2` gave an IC50 of 33.3 nM (Plasmodium falciparum; parasite growth, SYBR Green; W2; 48 h, drug-resistant strain, blood stage).
With `Cc1nc(Nc2ccc(S(F)(F)(F)(F)F)cc2)c2c(C)noc2n1` the EC50 was 930 nM (Plasmodium falciparum; parasite growth, SYBR Green; 3D7; 72 h).
For `O=C1C(NCCc2ccc(O)cc2)=CC2=NCCc3c[nH]c1c32`, the IC50 was 196 nM (Plasmodium falciparum; parasite growth, SYBR Green; 3D7; blood stage).
The IC50 of `CCCCCCCCCCOc1cc2c(O)c(C(=O)OCC)cnc2cc1OCC` is reported as less than 5.7 nM (Plasmodium falciparum; parasite growth, SYBR Green; blood stage).

A few entries again:
For `O=C1C(NCCc2ccc(O)cc2)=CC2=NCCc3c[nH]c1c32`, the IC50 was 196 nM (Plasmodium falciparum; parasite growth, SYBR Green; 3D7; blood stage).
